Experimental data gathered from unrelated publications.
Each line is one published result; not all experiments were run side by side. Numbers after ± are the reported error.
Organism: Plasmodium falciparum

SMILES | test | system | conditions | measurement | value
N#Cc1cc(NC(=O)C2c3ccccc3C(=O)N(CC(F)(F)F)C2c2ccc[n+]([O-])c2)ccc1F (stereo not shown) | parasite growth |  |  | EC50 | > 10000 nM
Cc1cc(C(=O)N[C@@H](CC(=O)NC(C)(C)C)C(=O)NCCNC(=O)c2cc(-c3ccccc3)ccn2)no1 | parasite growth | NF54 | 24 h, gametocyte | EC50 | 501 nM
Cc1cc(N2CC[C@@](C#N)(C3(C)CC3)C2=O)cc(C(=O)NCc2cc(F)cc(-c3cnn(C)c3)c2)n1 |  | Pf3D70087/N9, humanized SCID mouse | 10 mg/kg, 4-day test, day 6 post-infection | parasitaemia | 1.6%
COCCN(C)CC(=O)NC(Cc1ccc(-c2ccccc2)cc1)B(O)O (stereo not shown) | [3H]-hypoxanthine incorporation | Cam3.1, artemisinin-resistant |  | IC50 | 157 ± 52 nM
CCC1(CC)CC(=O)N(C2CCOc3ccc(C(=O)NC4CC(C)(C)Oc5ccccc54)cc32)C(=N)N1 (stereo not shown) |  | 3D7 | 10 × EC50, 120 h, 99% clearance | parasite clearance time | 53.8 h
CCNCC#CCNc1ccnc2cc(Cl)ccc12 | parasite growth, SYBR Green I | 3D7 | mean of experiments | IC50 | 34.1 nM
CC(C)(C)NC(=O)CC(NC(=O)CCc1ccccc1)C(=O)NCCNC(=O)c1ccc(-c2ccccc2)cc1 (stereo not shown) | parasite growth, SYBR Green | 3D7 | 72 h, blood stage | EC50 | > 2770 nM
Cc1cc(N2CCC(CO)(C3CC3)C2=O)cc(C(=O)NCc2cc(F)cc(-c3cnn(C)c3)c2)n1 (stereo not shown) | parasite growth | conditional knockdown control line | 120 h, added: 12.5 nM anhydrotetracycline | IC50 | 201 nM
COc1cccc2c(-c3ccc(O)c4c3C[C@@H](C)N[C@@H]4C)c(C)cc(O)c12 | asexual parasite proliferation, SYBR Green I fluorescence | clinical isolate SB_05, Mozambique |  | IC50 | 19.8 ± 2.3 nM
Cc1cc(C(=O)N[C@@H](CC(=O)NC(C)(C)C)C(=O)NCCNC(=O)c2cccc(-n3cccn3)c2)no1 |  | chloroquine-resistant, human, ex vivo field isolate |  | EC50 | 23 nM
CC1=N[C@H](C)Cc2c(-c3ccc(C)cc3)ccc(O)c21 | asexual parasite growth, SYBR Green I | clinical isolate SB_04, Malawi |  | IC50 | 808 ± 23 nM
CC(C)(C)NC(=O)CC(NC(=O)CCc1ccccc1)C(=O)NCCNC(=O)c1cccc(-c2ccccc2)c1 (stereo not shown) | parasite growth | NF54 | 72 h, gametocyte | EC50 | 31.6 nM
Cc1cc(N2CC[C@@](C#N)(C3CC3)C2=O)cc(NC(=O)Cc2ccccc2)n1 | parasite growth | conditional knockdown control line | 72 h, added: 50 nM anhydrotetracycline | IC50 | 37 nM
CCc1nc(N)nc(N)c1-c1ccc(Cl)cc1 |  | 3D7 | 10 × EC50, 120 h | log PRR | 3.23
CC1=N[C@H](C)Cc2c(-c3ccc4ccccc4c3)ccc(O)c21 | asexual parasite growth, SYBR Green I | clinical isolate SB_04, Malawi |  | IC50 | 794.4 ± 5.2 nM
CC(NC(=O)c1cccc(C(c2ccccc2)N2C(=N)NC(C)(C(C)C)CC2=O)c1)c1ccccc1 (stereo not shown) | parasite growth |  | 72 h, blood stage | EC50 | 10.5 nM
Oc1ccc(-c2ccc(O)c3ccccc23)c2c1C=NCC2 | asexual parasite proliferation, SYBR Green I fluorescence | Dd2 |  | IC50 | 1620 ± 99 nM
COc1cncc(-c2cc(F)cc(CNC(=O)c3cc(N4CC[C@@](C#N)(C5CC5)C4=O)cc(C)n3)c2)c1 | parasite growth | cPRS conditional knockdown line | 72 h, added: 12.5 nM anhydrotetracycline | IC50 | 34 nM
COc1cc(O)c(-c2cc(-c3cc(-c4c(O)cc(OC)c5c4C[C@@H](C)N[C@@H]5C)c4cc(C)cc(OC)c4c3O)c(O)c3c(OC)cc(C)cc23)c2c1[C@@H](C)N[C@H](C)C2 | asexual parasite proliferation, SYBR Green I fluorescence | K1 |  | IC50 | 115 ± 26 nM
Cc1cc(C(=O)N[C@@H](CC(=O)NC(C)(C)C)C(=O)NCCNC(=O)c2cccc(-c3ccn[nH]3)c2)no1 | male gamete activation | NF54 | 48 h | EC50 | 240 nM
CCC1(CC)CC(=O)N(C2c3cc(C(=O)NC4c5ccccc5CC4O)ccc3OC2(C)COC)C(=N)N1 (stereo not shown) |  | reversion line | 6 months without drug | EC50 | 3.33 nM
COc1cccc2c(-c3ccc(O)c4c3CCNC4)ccc(O)c12 | asexual parasite proliferation, SYBR Green I fluorescence | Dd2 |  | IC50 | 408 ± 77 nM

For quick reference, copied from above:
SMILES | test | system | conditions | measurement | value
Oc1ccc(-c2ccc(O)c3ccccc23)c2c1C=NCC2 | asexual parasite proliferation, SYBR Green I fluorescence | Dd2 |  | IC50 | 1620 ± 99 nM
